Assay results pooled from the literature.
Lines come from different studies, so protocols differ. ± gives the spread as reported.
CHRM2: Muscarinic acetylcholine receptor M2 (CHRM2, Homo sapiens, UniProt P08172)
Sequence of UniProt P08172 (whole entry, looked up): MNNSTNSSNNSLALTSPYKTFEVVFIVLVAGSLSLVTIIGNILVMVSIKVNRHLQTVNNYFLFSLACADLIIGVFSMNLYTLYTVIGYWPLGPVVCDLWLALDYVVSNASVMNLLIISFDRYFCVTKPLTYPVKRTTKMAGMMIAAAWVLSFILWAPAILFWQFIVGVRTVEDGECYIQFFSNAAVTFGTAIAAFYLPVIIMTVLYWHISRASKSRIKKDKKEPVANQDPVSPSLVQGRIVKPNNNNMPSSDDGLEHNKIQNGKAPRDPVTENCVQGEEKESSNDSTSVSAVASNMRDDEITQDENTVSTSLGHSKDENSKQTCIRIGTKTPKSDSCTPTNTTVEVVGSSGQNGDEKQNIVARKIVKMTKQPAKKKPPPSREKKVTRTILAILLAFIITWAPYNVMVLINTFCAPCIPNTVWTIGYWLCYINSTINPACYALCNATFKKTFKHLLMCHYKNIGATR
GRM5: Metabotropic glutamate receptor 5 (GRM5, Homo sapiens, UniProt P41594)
Sequence of UniProt P41594 (whole entry, looked up): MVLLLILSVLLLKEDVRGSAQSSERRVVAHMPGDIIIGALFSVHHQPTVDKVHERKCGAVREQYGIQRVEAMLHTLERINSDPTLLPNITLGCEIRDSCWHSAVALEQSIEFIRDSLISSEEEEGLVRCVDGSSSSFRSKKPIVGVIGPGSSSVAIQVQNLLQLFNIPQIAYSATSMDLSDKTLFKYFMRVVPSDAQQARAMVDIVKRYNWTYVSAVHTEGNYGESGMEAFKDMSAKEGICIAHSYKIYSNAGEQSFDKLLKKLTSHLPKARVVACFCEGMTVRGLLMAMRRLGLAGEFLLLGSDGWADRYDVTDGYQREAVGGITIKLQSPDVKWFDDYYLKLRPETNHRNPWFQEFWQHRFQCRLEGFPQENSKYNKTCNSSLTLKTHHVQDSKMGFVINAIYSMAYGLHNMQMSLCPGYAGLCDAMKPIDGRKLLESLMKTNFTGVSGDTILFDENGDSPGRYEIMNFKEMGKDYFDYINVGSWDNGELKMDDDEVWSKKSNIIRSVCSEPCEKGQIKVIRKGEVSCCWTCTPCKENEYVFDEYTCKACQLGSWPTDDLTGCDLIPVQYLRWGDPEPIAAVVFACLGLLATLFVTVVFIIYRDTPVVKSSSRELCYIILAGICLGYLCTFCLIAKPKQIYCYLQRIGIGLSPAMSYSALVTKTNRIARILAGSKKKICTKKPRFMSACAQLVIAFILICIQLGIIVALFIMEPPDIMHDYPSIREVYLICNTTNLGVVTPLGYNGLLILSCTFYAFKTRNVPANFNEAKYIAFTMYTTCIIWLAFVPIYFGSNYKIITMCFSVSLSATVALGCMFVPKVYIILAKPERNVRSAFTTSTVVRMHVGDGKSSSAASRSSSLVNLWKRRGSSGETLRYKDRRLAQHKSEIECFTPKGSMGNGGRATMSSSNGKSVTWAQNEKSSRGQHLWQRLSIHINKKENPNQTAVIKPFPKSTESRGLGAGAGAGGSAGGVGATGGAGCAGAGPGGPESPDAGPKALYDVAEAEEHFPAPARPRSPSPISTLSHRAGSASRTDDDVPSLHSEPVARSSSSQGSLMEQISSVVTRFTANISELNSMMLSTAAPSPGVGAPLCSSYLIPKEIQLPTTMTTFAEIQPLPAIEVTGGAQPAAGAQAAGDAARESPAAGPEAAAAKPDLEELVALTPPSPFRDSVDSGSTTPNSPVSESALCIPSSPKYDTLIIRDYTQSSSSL
Sequence of UniProt O95983 (whole entry, looked up): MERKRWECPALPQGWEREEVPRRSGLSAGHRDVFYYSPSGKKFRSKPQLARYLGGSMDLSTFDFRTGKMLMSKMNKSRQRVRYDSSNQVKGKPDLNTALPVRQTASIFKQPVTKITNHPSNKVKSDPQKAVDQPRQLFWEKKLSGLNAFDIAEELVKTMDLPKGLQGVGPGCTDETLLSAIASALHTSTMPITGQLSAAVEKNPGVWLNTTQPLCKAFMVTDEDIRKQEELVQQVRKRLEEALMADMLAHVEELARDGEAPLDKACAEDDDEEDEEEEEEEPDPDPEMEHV
Sequence of UniProt P59676 (whole entry, looked up): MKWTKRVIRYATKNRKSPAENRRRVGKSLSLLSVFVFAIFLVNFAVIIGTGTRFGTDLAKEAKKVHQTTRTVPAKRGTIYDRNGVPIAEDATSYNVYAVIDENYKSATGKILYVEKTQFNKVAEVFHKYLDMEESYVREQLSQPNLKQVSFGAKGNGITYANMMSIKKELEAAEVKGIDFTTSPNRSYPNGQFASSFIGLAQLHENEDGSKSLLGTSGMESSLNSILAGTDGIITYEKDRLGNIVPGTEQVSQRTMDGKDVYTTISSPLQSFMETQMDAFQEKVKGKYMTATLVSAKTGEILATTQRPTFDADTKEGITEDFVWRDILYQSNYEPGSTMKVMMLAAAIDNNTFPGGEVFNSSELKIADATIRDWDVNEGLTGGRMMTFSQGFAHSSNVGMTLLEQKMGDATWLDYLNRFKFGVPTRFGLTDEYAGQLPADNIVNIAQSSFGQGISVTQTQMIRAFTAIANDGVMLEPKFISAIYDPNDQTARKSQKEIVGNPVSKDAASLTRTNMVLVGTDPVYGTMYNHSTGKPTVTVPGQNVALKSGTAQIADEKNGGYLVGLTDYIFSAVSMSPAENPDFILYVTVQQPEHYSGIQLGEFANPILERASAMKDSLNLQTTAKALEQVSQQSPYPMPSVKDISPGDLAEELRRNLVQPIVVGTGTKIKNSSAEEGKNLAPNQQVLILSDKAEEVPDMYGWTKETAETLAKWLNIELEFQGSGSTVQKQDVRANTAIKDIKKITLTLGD
Sequence of UniProt Q8NDV2 (whole entry, looked up): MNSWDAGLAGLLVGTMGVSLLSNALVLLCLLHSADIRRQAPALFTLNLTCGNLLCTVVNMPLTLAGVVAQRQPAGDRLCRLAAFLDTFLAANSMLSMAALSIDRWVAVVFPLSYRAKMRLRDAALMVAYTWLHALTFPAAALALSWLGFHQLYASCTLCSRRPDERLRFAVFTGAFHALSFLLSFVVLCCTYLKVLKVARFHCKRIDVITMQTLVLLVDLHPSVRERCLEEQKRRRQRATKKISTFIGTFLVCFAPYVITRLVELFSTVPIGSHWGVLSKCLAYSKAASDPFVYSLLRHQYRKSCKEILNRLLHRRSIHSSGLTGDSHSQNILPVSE
Sequence of UniProt Q9P1W9 (whole entry, looked up): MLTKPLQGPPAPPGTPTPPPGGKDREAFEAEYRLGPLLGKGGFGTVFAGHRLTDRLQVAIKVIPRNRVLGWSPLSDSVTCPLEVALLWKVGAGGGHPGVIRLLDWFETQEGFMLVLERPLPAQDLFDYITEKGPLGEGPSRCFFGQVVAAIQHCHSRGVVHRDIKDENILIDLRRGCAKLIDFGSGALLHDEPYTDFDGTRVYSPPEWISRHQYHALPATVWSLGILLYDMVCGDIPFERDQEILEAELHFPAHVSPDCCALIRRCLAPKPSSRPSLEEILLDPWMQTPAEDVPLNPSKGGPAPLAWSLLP
Sequence of UniProt Q9Y6W6 (whole entry, looked up): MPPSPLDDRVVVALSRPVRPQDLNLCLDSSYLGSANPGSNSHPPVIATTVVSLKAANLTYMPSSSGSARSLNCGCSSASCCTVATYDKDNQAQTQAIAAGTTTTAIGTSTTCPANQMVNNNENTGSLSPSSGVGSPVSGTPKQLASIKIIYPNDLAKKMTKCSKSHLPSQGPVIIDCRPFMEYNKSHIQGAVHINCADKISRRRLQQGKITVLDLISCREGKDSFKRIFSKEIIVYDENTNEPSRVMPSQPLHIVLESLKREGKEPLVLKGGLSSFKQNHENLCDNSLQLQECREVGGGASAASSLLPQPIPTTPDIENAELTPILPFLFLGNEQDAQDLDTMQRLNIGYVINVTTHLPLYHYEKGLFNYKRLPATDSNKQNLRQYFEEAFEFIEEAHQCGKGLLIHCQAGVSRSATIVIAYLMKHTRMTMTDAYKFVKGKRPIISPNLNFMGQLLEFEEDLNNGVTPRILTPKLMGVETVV
Sequence of UniProt Q5XI64 (whole entry, looked up): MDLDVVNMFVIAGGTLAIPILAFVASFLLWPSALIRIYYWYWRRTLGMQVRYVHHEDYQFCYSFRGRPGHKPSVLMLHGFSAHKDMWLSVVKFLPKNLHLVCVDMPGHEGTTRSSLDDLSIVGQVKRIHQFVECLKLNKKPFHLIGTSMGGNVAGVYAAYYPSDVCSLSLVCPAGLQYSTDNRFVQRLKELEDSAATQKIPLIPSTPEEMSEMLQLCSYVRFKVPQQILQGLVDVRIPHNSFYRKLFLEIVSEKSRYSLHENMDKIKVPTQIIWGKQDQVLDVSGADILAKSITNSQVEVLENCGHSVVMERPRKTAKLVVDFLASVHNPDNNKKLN
Sequence of UniProt Q13133 (whole entry, looked up): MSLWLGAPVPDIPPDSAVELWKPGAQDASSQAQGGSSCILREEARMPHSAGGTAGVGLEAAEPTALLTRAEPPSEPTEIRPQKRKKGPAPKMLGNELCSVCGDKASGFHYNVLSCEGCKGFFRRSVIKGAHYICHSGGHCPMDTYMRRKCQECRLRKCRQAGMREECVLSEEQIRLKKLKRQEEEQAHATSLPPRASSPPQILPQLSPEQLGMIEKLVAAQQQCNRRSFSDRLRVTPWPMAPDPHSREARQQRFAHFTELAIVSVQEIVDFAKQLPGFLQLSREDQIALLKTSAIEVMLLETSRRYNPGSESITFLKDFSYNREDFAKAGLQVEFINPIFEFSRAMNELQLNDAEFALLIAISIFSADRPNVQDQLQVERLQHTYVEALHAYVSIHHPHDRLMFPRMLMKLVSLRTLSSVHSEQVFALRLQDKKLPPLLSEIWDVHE
Sequence of UniProt P00942 (whole entry, unmodified, looked up): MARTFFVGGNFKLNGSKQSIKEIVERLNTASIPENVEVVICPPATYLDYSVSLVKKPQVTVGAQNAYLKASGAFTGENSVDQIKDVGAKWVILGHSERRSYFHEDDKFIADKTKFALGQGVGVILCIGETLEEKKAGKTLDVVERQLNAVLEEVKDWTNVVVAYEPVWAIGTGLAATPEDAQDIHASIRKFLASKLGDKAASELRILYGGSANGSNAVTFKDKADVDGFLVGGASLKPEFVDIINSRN

For `CO/N=C(\C(=O)N[C@@H]1C(=O)N2C(C(=O)O)=C(COC(C)=O)CS[C@H]12)c1csc(N)n1`, the kinact/KI was 16000 ± 4700 M⁻¹ s⁻¹ (Penicillin-binding protein 2a (pbp2a, Streptococcus pneumoniae, UniProt Q8DNB6); inhibitor).
`COc1ccc(F)cc1C(=O)NCc1ccc(-c2nn([C@@H](C)C(F)(F)F)c(N)c2C(N)=O)cc1` has a selectivity ratio of 26.3 (MAP2K2 (Homo sapiens, UniProt P36507); enzyme activity; baseline: MAP2K2 over BTK).
For `Nc1nc2c(ncn2[C@@H]2O[C@@H]3COP(=O)(O)O[C@H]4[C@@H](O)[C@H](n5cnc6c(=O)[nH]c(N)nc65)O[C@@H]4COP(=O)(O)O[C@H]3[C@H]2O)c(=O)[nH]1`, the ΔH was 0.967 ± 0.0567 kcal/mol (Cell cycle histidine kinase CckA, R374A; cytoplasmic region (Caulobacter vibrioides, UniProt Q9X688, R374A); binding, ITC; together with: ADP 5 mM).
`CC[C@H](C)[C@@H]1NC(=O)[C@H](Cc2c[nH]c3ccccc23)NC(=O)[C@H](Cc2ccc(O)cc2)NC(=O)CSC[C@@H](C(N)=O)NC(=O)[C@H]([C@@H](C)O)NC(=O)[C@H](CO)NC(=O)[C@H](C(C)C)NC(=O)[C@H](Cc2ccc(O)cc2)NC(=O)[C@H](CCCNC(=N)N)NC(=O)[C@H](Cc2ccc(O)cc2)NC(=O)[C@H]([C@@H](C)O)NC(=O)[C@H]([C@@H](C)O)NC(=O)[C@H](Cc2c[nH]c3ccccc23)NC(=O)[C@H](CO)NC(=O)[C@H](CC(N)=O)NC(=O)[C@H](CO)NC1=O` has a ΔH of -6.8 ± 1.2 kcal/mol (Vacuolar protein sorting-associated protein 26A/Vacuolar protein sorting-associated protein 35, Vps35 residues 1–390 (Homo sapiens, UniProt O75436+Q96QK1); ITC; 25 °C).
`CC[C@H](C)[C@H](NC(=O)CNC(=O)[C@@H](N)CCCCN)C(=O)N[C@@H](CC(C)C)C(=O)N[C@@H](CCCCN)C(=O)N[C@@H](CCCNC(=N)N)C(=O)N[C@@H](CCC(=O)O)C(=O)N[C@@H](CCCCN)C(=O)N[C@@H](CCCNC(=N)N)C(=O)N[C@@H](CC(C)C)C(=O)N[C@@H](CCCNC(=N)N)C(=O)N[C@@H](CCCNC(=N)N)C(=O)N[C@@H](CCCCN)C(=O)N[C@@H](CC(N)=O)C(=O)N[C@H](C(=O)N[C@@H](Cc1c[nH]cn1)C(=O)N[C@@H](Cc1c[nH]c2ccccc12)C(=O)N1CCC[C@H]1C(=O)N[C@@H](CCC(=O)O)C(=O)N[C@@H](CCC(=O)O)C(=O)NCC(=O)N[C@@H](CCCCN)C(=O)N[C@@H](CC(C)C)C(=O)N[C@@H](CCCNC(=N)N)C(=O)N[C@@H](CCC(=O)O)C(=O)N[C@@H](Cc1ccc(O)cc1)C(=O)N[C@@H](Cc1ccccc1)C(=O)N[C@@H](Cc1ccc(O)cc1)C(=O)N[C@@H](Cc1ccccc1)C(=O)N[C@@H](CCC(=O)O)C(=O)N[C@@H](CC(C)C)C(=O)N[C@@H](CC(=O)O)C(=O)N[C@@H](CCC(=O)O)C(=O)N[C@@H](C)C(=O)N[C@@H](CCC(=O)O)C(=O)N[C@@H](CCCNC(=N)N)C(=O)N[C@H](C(=O)N[C@@H](CC(N)=O)C(=O)N[C@H](C(=O)O)C(C)C)C(C)C)C(C)C`: bead binding “no effect” (PP2A, PP4, PP5, PP6 catalytic subunits; competitive inhibitor, competitive inhibitor bead pulldown MS; HeLa and HEK293T cells, cell lysate; concentration not given).
The IC50 of `C[C@H]1COCCN1c1nc(NCc2cccnc2C(F)(F)F)c2cccnc2n1` is reported as 37800 nM (CHRM2; binding; CEREP panel).
`O=C(Nc1cccnn1)N1CCC(=Cc2cccc(Oc3ccc(C(F)(F)F)cn3)c2)CC1` — result for “inhibition of binding”: 6% (GRM5; radioligand binding; 50 µM, together with: [3H]quisqualic acid).
`CC(C)(C)C(=O)CSc1ncc2c(n1)-c1ccsc1CC2` — result for “active site volume”: 53.7 ± 0.8 Å³ (Dual specificity protein phosphatase 10, catalytic domain (Homo sapiens, UniProt Q9Y6W6); X-ray co-crystal structure; concentration not given).
`O=C(c1ccc(Cl)cc1)N1CCN2C(=O)N(OC(=O)N3CCOc4ccccc43)C(=O)C2C1` (stereo not shown): “median protein ratio” 0.94 (OVCA2 (Homo sapiens, UniProt Q8WZ82); MS-based ABPP; SW-620 conditioned medium; 10 µM, 1 h, 37 °C; baseline: compound over DMSO, lower = more inhibition).
`[2H]c1c([2H])c([C@]2([2H])CCCN2C(=O)C(C)(C)Oc2ccc3cn[nH]c3c2)c([2H])c([2H])c1C([2H])([2H])[2H]` gave a remaining binding of 76% (SYK (Homo sapiens, UniProt P43405); KINOMEscan; 1 µM; baseline: DMSO control).
`Nc1ncnc2c1ncn2[C@@H]1O[C@H](COP(=O)(O)OP(=O)(O)OP(=O)(O)O)[C@@H](O)[C@H]1O` has a fluorescence ratio of 3.3 (matB (Rhodopseudomonas palustris, UniProt Q6ND88, C106A/K488A/Q457C/R286C); ATP binding; pH 8.0, 100 mM NaCl; baseline: bound over unbound).
The inhibition of `COc1ccc(N2C(=O)N(c3c(C)cccc3Cl)Cc3cnc(Nc4ccc(C5CCN(C)CC5)cc4OC)nc32)nc1` is reported as 2.44% (PIM2 (Homo sapiens, UniProt Q9P1W9); kinase activity; 0.5 µM).
`Clc1cc2c(cc1Cl)Oc1cc(Cl)c(Cl)cc1O2` gave an EC20 of 0.09 ± 0.05 nM (Uncharacterized protein (Takifugu rubripes, UniProt Q4JHL5); reporter gene, agonist, dual-luciferase; COS-7; 24 h).
For `CN(C(=O)n1cnc(-c2ccc[n+]([O-])c2)c1)C1CCCCC1`, the fold change was -6.5 (Monoacylglycerol lipase ABHD6 (Abhd6, Rattus norvegicus, UniProt Q5XI64); enzyme activity, ABPP; rat, brain; oral, 10 mg/kg/day, 1 days; baseline: vehicle).
Under “surface TFRC expression”, `CC[C@@H](C)[C@@H](NC(=O)[C@@H](Cc1ccc(O)cc1)NC(=O)[C@H]1CCCN1C(=O)[C@@H](CCCNC(=N)N)NC(=O)[C@H](N)Cc1c[nH]cn1)C(=O)N[C@H](C)C(=O)N[C@H](Cc1c[nH]cn1)C(=O)N[C@H](CCCNC(=N)N)C(=O)N[C@H](CCCCNC(=O)c1cccc(S(=O)(=O)F)c1)C(=O)N[C@H](Cc1ccc(O)cc1)C(=O)N[C@H](CO)C(=O)N[C@H](Cc1ccccc1)C(N)=O` is recorded as 0.583 (Transferrin receptor protein 1 (Tfrc, Mus musculus, UniProt Q62351); flow cytometry; RAW264.7; 2 h, pH 7.4, unit not given; baseline: 0 h).
With `COc1cc(Nc2ncc(F)c(Nc3ccc4c(n3)NC(=O)C(C)(C)O4)n2)cc(OC)c1OC` the inhibition was 60% (GSK3A (Homo sapiens, UniProt P49840); KINOMEscan; 10 µM).
For `COc1cc(N)c(Cl)cc1C(=O)NC1CN2CCC1CC2` (stereo not shown), “log2 fold change” read 0.053 (G-protein coupled receptor 26 (GPR26, Homo sapiens, UniProt Q8NDV2); β-arrestin recruitment, TANGO luminescence, item: GPR26; concentration not given; baseline: basal luminescence).
The Ki ratio of `O=C(O)COP(=O)(O)O` is reported as 20 (TPI1 (Saccharomyces cerevisiae, UniProt P00942, Y208A); enzyme activity, competitive inhibitor, GPDH/NADH-coupled; pH 8.9, 25 °C, ionic strength 0.1 NaCl, together with: glyceraldehyde 3-phosphate substrate; baseline: mutant over wild type).
`CCCCCCCCCC(=O)CC(=O)Nc1ccccc1` has a melting temperature of 34.5 °C (qscR (Pseudomonas aeruginosa, UniProt G3XD77); ligand, differential scanning fluorimetry; ligand complex).
For `O=C1c2ccccc2C(=O)C1c1ccccc1`, activity read “inactive” (NR1H3 (Homo sapiens, UniProt Q13133); concentration not given).
`C[C@H]1CN(c2n[nH]c3nc(N[C@H]4CC[C@H](NS(=O)(=O)CCC(F)(F)F)CC4)ncc23)CCO1` gave a remaining binding of 1.11 (Methyl-CpG-binding domain protein 3 (MBD3, Homo sapiens, UniProt O95983); Kinobeads competition, item: MBD3; 20 µM, unit not given; baseline: vehicle).
The activation of `CN1CCN(c2cc(-c3ccncc3)c(-c3ccc4ccccc4c3)nn2)CC1` is reported as -0.6% (CHRM2; agonist, FLIPR; 12.5 µM).
With `C[C@]1(COC(=O)c2cc(Cl)ccc2O)[C@H](C(=O)O)N2C(=O)/C(=C/c3ccccn3)[C@H]2S1(=O)=O` the Ki (inactivation) was 1440 ± 634 nM (Beta-lactamase (blaOXA-33, Acinetobacter baumannii, UniProt Q8RLA6)).
Under “inhibition of binding”, `O=C(Nc1cnccc1Cl)N1CCN(Cc2ccc3c(c2)OC(F)(F)O3)CC1` is recorded as 8% (GRM5; radioligand binding; 50 µM, together with: [3H]quisqualic acid).
The kinact/KI of `CC1(C)S[C@@H]2[C@H](NC(=O)[C@H](N)c3ccccc3)C(=O)N2[C@H]1C(=O)O` is reported as 59000 ± 6600 M⁻¹ s⁻¹ (Penicillin-binding protein 2X (Streptococcus pneumoniae R6, UniProt P59676); inhibitor; Streptococcus pneumoniae).

Some of these lines once more:
`O=C(c1ccc(Cl)cc1)N1CCN2C(=O)N(OC(=O)N3CCOc4ccccc43)C(=O)C2C1` (stereo not shown): “median protein ratio” 0.94 (OVCA2 (Homo sapiens, UniProt Q8WZ82); MS-based ABPP; SW-620 conditioned medium; 10 µM, 1 h, 37 °C; baseline: compound over DMSO, lower = more inhibition).
The Ki ratio of `O=C(O)COP(=O)(O)O` is reported as 20 (TPI1 (Saccharomyces cerevisiae, UniProt P00942, Y208A); enzyme activity, competitive inhibitor, GPDH/NADH-coupled; pH 8.9, 25 °C, ionic strength 0.1 NaCl, together with: glyceraldehyde 3-phosphate substrate; baseline: mutant over wild type).
`Nc1ncnc2c1ncn2[C@@H]1O[C@H](COP(=O)(O)OP(=O)(O)OP(=O)(O)O)[C@@H](O)[C@H]1O` has a fluorescence ratio of 3.3 (matB (Rhodopseudomonas palustris, UniProt Q6ND88, C106A/K488A/Q457C/R286C); ATP binding; pH 8.0, 100 mM NaCl; baseline: bound over unbound).
